Experimental data from different studies.
Compare with care: the assays were run in different laboratories.
PAK5: Serine/threonine-protein kinase PAK 5 (PAK5, Homo sapiens, UniProt Q9P286)
Chain of UniProt Q9P286 (whole entry, looked up): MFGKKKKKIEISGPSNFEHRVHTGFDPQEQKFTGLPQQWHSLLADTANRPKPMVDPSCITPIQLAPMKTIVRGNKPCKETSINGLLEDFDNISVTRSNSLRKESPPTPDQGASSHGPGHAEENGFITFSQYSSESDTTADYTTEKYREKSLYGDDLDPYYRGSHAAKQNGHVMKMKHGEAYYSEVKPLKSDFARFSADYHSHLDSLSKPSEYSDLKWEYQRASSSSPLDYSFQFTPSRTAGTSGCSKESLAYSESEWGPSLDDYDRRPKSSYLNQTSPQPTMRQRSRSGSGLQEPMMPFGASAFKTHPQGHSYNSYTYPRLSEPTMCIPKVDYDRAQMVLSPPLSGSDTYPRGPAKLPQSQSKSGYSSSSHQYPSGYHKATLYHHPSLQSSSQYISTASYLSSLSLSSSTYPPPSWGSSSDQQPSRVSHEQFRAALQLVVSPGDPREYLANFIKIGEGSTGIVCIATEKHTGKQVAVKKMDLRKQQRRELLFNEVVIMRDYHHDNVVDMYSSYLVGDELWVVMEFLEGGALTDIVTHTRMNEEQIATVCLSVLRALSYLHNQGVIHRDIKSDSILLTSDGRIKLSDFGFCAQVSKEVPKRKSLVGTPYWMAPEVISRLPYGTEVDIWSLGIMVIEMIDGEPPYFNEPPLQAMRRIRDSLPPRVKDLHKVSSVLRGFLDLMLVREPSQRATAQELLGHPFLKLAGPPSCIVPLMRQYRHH

C=CC(=O)N1CCC(C(=O)NCC(=O)N2CCN(c3nc(-c4cnc(N)nc4C(F)F)nc(N4CCOCC4)n3)CC2)CC1
remaining binding (PAK5; KINOMEscan; 1 µM): 79%

C=CC(=O)N1CCC(COCC(=O)N2CCN(c3nc(-c4cnc(N)nc4C(F)F)nc(N4CCOC[C@@H]4C)n3)CC2)CC1
remaining binding (PAK5; KINOMEscan; 1 µM): 84%

Oc1ccc(/C=C/c2cc(O)cc(O)c2)cc1
viability (OCI-Ly1; 1 µM, 120 h): 150%

COc1cc(-c2cncc3c2CN(C)Cc2cc(N4CCNCC4)ccc2-3)cc(OC)c1OC
remaining activity (PAK5; kinase activity; 1 µM, human enzyme, added: ATP 10 µM; reference: DMSO control): 112%

O=C1NC(=O)/C(=C/c2ccc(-c3ccc(F)cc3O)o2)S1
remaining activity (PAK5; enzyme activity; 10 µM): 49%

COc1cc2c(NC3CCN(C(C)C)CC3)nc(N3CCC(F)(F)CC3)nc2cc1OCCCN1CCCC1
viability (OCI-Ly1; 1 µM, 120 h): 82.5%

Cc1cc(Nc2cc(N3CCN(C)CC3)nc(Sc3ccc(NC(=O)C4CC4)cc3)n2)[nH]n1
remaining activity (PAK5; kinase activity, KinaseProfiler; 0.03 µM, species human; reference: control): 109%

COc1cc(F)ccc1-c1ncnc(Nc2cccc(C[S@](C)(=N)=O)c2)n1
remaining activity (PAK5; kinase activity; 10 µM, added: 10 µM ATP): 71%

COCCNc1nc2ccc(C#CC3(O)CCCCC3)cc2n1-c1ccnc(N)n1
remaining kinase activity (PAK5; enzyme activity, inhibitor, Z'-LYTE; 1 µM; reference: no-inhibitor control): 75.1%

Nc1ncc2c(n1)-c1c([nH]c3ccc(-c4ccc(F)cc4)cc13)CCC2
remaining activity (PAK5; kinase activity, inhibitor, radiometric; 1 µM, added: ATP at Km): 79%

Excerpt of the above:
COCCNc1nc2ccc(C#CC3(O)CCCCC3)cc2n1-c1ccnc(N)n1
remaining kinase activity (PAK5; enzyme activity, inhibitor, Z'-LYTE; 1 µM; reference: no-inhibitor control): 75.1%
